# Measurements of several laboratories.
# RPS6KA5: Ribosomal protein S6 kinase alpha-5 (RPS6KA5, Homo sapiens, UniProt O75582)
# Sequence of UniProt O75582 (whole entry, looked up): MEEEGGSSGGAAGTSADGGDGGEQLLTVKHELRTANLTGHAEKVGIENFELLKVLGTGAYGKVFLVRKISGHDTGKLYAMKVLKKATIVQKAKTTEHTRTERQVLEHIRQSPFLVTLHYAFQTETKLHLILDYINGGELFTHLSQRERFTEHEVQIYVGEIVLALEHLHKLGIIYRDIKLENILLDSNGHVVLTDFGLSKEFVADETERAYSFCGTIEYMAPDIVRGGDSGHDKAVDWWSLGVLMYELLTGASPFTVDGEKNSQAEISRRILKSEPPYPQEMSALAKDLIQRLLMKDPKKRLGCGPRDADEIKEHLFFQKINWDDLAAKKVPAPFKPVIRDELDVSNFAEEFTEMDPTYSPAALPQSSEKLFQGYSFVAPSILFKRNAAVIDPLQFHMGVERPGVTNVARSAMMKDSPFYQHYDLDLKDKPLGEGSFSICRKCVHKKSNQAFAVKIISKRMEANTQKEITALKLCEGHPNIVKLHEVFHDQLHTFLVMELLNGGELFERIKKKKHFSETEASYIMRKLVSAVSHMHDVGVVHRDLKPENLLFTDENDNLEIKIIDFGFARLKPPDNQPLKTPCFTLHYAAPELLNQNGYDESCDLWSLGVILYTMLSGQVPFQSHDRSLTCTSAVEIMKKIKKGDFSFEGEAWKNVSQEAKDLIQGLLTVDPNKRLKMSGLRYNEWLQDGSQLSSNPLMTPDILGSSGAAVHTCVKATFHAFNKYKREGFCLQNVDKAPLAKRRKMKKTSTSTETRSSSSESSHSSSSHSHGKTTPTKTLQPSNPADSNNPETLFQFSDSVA
# Sequence of UniProt P06797 (whole entry, looked up): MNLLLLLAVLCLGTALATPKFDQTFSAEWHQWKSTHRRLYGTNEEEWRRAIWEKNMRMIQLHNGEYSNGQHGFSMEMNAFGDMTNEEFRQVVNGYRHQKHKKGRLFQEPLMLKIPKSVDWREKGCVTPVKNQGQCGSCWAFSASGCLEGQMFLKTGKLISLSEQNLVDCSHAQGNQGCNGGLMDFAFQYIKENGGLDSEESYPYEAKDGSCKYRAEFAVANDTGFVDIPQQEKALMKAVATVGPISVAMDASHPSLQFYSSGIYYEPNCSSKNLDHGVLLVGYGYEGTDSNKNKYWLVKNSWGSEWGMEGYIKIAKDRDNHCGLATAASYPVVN
# Sequence of UniProt P51956 (whole entry, looked up): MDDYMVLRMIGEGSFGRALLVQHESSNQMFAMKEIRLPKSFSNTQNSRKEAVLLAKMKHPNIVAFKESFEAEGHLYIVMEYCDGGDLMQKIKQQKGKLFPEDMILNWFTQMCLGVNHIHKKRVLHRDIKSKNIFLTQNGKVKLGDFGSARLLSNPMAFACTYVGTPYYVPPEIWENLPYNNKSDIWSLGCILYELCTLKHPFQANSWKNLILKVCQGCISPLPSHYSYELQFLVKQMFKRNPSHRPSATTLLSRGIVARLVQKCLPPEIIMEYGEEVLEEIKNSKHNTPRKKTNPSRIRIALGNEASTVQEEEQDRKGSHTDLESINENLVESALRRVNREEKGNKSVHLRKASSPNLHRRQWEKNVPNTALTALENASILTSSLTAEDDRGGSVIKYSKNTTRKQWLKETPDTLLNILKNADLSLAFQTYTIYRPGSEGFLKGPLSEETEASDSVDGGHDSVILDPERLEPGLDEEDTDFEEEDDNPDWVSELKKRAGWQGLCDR
# Sequence of UniProt P37173 (whole entry, looked up): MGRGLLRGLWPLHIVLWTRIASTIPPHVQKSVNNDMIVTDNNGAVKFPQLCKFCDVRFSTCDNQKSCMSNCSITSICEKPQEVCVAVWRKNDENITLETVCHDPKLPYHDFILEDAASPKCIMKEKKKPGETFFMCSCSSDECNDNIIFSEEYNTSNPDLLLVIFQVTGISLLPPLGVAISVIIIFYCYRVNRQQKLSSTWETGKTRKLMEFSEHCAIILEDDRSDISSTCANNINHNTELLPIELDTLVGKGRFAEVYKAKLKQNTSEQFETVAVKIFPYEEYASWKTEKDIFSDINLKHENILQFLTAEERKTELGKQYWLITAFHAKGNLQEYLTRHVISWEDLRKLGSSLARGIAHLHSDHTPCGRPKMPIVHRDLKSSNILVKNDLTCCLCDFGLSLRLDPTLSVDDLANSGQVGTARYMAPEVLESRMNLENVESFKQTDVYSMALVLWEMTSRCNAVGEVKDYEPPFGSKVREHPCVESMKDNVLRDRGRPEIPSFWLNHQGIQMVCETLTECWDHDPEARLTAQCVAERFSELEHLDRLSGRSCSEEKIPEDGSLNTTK
# Sequence of UniProt O43293 (whole entry, looked up): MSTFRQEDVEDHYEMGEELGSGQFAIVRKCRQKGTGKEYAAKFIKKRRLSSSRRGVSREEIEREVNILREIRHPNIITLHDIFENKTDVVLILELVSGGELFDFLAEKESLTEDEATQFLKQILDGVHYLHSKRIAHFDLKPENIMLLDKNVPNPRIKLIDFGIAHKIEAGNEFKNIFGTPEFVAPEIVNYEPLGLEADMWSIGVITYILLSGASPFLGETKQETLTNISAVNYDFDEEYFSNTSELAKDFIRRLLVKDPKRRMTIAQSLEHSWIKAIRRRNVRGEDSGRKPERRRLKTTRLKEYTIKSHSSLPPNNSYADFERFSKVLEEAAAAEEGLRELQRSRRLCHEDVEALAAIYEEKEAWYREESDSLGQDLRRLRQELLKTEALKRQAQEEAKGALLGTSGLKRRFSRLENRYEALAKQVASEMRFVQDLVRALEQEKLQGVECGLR
# Sequence of UniProt Q13554 (whole entry, looked up): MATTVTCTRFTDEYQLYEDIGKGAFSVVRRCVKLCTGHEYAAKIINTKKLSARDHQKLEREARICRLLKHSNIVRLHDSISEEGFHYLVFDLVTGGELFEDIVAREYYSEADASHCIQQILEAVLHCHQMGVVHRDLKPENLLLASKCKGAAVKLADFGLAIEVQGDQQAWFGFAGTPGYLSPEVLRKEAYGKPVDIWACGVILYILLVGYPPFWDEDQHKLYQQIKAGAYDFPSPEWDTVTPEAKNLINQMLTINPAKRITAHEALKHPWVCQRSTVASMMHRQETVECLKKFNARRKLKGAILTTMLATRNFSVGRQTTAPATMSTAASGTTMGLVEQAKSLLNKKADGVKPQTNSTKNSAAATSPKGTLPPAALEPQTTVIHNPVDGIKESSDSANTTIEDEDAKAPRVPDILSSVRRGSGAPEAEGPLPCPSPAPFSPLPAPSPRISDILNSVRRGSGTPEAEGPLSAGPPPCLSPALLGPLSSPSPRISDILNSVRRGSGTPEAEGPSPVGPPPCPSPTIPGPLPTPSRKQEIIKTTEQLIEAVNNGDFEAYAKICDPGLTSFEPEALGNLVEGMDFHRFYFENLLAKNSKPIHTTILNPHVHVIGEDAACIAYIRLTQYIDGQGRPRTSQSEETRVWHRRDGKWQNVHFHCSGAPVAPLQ
SMILES,target,assay,setting,how to read,remaining activity [%]
O=C1NC(=O)/C(=C/c2ccc(-c3ccc(F)cc3O)o2)S1,RPS6KA5,enzyme activity,10 µM,,54
COc1cc(F)ccc1-c1ncnc(Nc2cccc(C[S@](C)(=N)=O)c2)n1,RPS6KA5,kinase activity,"10 µM, together with: 10 µM ATP",,91
CNc1ncc2c(/C=C/C(=O)N3CCC(OC)CC3)nn(Cc3cccc(C(F)(F)F)c3)c2n1,"Calcium/calmodulin-dependent protein kinase type II subunit beta (CAMK2B, Homo sapiens, UniProt Q13554)","kinase activity, inhibitor",1 µM,reference: untreated control,97
COc1cc(-c2cncc3c2CN(C)Cc2cc(N4CCNCC4)ccc2-3)cc(OC)c1OC,"Death-associated protein kinase 3 (DAPK3, Homo sapiens, UniProt O43293)",kinase activity,"1 µM, human enzyme, together with: ATP 10 µM",reference: DMSO control,108
Cc1cc(Nc2cc(N3CCN(C)CC3)nc(Sc3ccc(NC(=O)C4CC4)cc3)n2)[nH]n1,"Serine/threonine-protein kinase Nek3 (NEK3, Homo sapiens, UniProt P51956)","kinase activity, KinaseProfiler","0.03 µM, species human",reference: control,105
COc1cc(Nc2ncc3c(n2)-c2ccc(Cl)cc2C(c2c(F)cccc2OC)=NC3)ccc1C(=O)O,DYRK1A,kinase activity,1 µM,,104
Cc1cccc(C)c1C(=O)OCC(=O)[C@H](CCCCN)NC(=O)[C@H](CCCNC(=N)N)NC(=O)OCc1ccccc1,"Procathepsin L (Mus musculus, UniProt P06797)",inhibitor,"1 µM, room temperature, together with: AMC substrate",,100
O=C(NC1CCC1)c1ccc2nc(-c3cccc(NS(=O)(=O)NCCN4CCCCC4)c3)cn2c1,"TGF-beta receptor type-2 (TGFBR2, Homo sapiens, UniProt P37173)",enzyme activity,10 µM,,100
O=C(O)c1ccc(Nc2ncc3c(n2)-c2ccc(Cl)cc2C(c2c(F)cccc2F)=NC3)cc1,MEK1(h),kinase activity,1 µM,,110
